Literature values that unrelated publications cite.
Numbers after ± are the reported error.
UniProt P35372, sequence (whole entry, looked up): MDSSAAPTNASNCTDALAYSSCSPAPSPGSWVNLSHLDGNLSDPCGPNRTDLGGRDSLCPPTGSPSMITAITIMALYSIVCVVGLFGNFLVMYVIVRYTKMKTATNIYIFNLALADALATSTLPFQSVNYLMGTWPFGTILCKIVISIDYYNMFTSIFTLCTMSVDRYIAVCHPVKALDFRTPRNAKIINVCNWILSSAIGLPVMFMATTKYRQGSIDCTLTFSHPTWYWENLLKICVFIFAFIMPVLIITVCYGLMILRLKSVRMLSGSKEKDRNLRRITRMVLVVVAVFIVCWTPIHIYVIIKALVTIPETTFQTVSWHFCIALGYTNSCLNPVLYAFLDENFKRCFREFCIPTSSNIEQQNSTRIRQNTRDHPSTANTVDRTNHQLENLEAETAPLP
UniProt P23977, sequence (whole entry, looked up): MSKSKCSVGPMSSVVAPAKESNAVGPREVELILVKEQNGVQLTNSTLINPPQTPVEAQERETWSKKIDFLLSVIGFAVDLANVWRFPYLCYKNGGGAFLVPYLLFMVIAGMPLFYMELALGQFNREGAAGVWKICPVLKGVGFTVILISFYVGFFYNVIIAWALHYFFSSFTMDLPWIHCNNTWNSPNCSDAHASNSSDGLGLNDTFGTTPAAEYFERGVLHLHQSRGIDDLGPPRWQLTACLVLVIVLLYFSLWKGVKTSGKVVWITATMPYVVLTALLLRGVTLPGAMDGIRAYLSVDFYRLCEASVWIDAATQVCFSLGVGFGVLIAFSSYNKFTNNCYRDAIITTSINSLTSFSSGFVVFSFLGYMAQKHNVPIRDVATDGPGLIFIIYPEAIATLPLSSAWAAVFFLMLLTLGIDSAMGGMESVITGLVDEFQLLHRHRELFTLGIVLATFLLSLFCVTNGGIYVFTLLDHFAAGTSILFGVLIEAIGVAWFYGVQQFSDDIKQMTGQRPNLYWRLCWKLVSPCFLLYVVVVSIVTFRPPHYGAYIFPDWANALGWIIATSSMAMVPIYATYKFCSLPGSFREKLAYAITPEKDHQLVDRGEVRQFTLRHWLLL
UniProt Q01959, sequence (whole entry, looked up): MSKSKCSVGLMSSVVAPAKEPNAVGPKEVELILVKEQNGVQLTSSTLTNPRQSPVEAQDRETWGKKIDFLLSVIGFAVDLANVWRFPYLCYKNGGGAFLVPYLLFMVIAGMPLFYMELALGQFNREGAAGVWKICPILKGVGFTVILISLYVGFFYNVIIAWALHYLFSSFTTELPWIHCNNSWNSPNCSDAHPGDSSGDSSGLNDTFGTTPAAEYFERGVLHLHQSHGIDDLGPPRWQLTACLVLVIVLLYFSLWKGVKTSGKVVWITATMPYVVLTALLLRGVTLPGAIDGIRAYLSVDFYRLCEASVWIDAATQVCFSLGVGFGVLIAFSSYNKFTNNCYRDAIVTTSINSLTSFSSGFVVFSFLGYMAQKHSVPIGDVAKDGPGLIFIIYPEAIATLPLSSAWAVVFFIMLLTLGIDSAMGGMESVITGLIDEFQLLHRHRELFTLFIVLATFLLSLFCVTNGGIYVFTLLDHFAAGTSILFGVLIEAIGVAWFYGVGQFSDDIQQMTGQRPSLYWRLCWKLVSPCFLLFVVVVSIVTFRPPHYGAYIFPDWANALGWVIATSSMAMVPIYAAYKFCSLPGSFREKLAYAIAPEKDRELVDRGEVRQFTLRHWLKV
UniProt Q63008, sequence (whole entry, looked up): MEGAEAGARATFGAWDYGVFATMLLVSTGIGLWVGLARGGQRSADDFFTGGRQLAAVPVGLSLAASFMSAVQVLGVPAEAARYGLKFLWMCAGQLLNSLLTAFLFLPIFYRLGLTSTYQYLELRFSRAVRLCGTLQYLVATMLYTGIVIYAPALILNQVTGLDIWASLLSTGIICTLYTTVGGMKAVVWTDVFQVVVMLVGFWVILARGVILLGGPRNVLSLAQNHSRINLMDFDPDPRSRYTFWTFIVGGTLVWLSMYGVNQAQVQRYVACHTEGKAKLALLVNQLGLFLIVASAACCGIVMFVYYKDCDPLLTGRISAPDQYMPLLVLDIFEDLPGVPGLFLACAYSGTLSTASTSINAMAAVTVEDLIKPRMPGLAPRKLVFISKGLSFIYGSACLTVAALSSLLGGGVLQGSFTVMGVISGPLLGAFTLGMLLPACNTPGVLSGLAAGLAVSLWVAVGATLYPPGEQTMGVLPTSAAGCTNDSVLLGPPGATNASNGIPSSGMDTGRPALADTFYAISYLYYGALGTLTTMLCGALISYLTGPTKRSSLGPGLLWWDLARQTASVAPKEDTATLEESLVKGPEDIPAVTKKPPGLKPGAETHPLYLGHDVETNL

`C=CCN(CC=C)CCc1c[nH]c2ccc(F)cc12` gave a Ki of > 10000 nM (Mu-type opioid receptor (OPRM1, Homo sapiens, UniProt P35372)).
With `CCOc1cc(Oc2ccc(C(F)(F)F)cc2Cl)ccc1[N+](=O)[O-]` the EC50 was ~2000 nM (Sodium/iodide cotransporter (Rattus norvegicus, UniProt Q63008); iodide uptake, inhibitor; FRTL-5).
The IC50 of `CCCCCCCCCCCCCCCCSC1CC(=O)N(CCC(=O)NCCOCCOCCOCCOCCOCCOCCOCCOCCOCCOCCOCCOCCOCCOCCOCCOCCOCCOCCOCCOCCOCCOCCOCCOCCC(=O)NC(COCCC(=O)NCCOCCOCCOCCOCCC(=O)NCCCC[C@@H](NC(=O)CNC(=O)[C@@H](CC(C)C)NC(=O)[C@@H](CCC(=O)O)NC(=O)[C@H]2CSSC[C@@H](NC(=O)[C@H]3CCCN3C(=O)[C@@H](Cc3c[nH]cn3)NC(C)=O)C(=O)N[C@H](CC(=O)O)C(=O)N[C@H](Cc3ccc(O)cc3)C(=O)N3CCC[C@@H]3C(=O)N[C@H](CCC(=O)O)C(=O)N[C@H](Cc3c[nH]c4ccccc34)C(=O)N[C@H](CCC(N)=O)C(=O)N[C@H](Cc3c[nH]c4ccccc34)C(=O)N[C@H](CC(C)C)C(=O)N2)C(N)=O)(COCCC(=O)NCCOCCOCCOCCOCCC(=O)NCCCC[C@@H](NC(=O)CNC(=O)[C@@H](CC(C)C)NC(=O)[C@@H](CCC(=O)O)NC(=O)[C@H]2CSSC[C@@H](NC(=O)[C@H]3CCCN3C(=O)[C@@H](Cc3c[nH]cn3)NC(C)=O)C(=O)N[C@H](CC(=O)O)C(=O)N[C@H](Cc3ccc(O)cc3)C(=O)N3CCC[C@@H]3C(=O)N[C@H](CCC(=O)O)C(=O)N[C@H](Cc3c[nH]c4ccccc34)C(=O)N[C@H](CCC(N)=O)C(=O)N[C@H](Cc3c[nH]c4ccccc34)C(=O)N[C@H](CC(C)C)C(=O)N2)C(N)=O)COCCC(=O)NCCOCCOCCOCCOCCC(=O)NCCCC[C@@H](NC(=O)CNC(=O)[C@@H](CC(C)C)NC(=O)[C@@H](CCC(=O)O)NC(=O)[C@H]2CSSC[C@@H](NC(=O)[C@H]3CCCN3C(=O)[C@@H](Cc3c[nH]cn3)NC(C)=O)C(=O)N[C@H](CC(=O)O)C(=O)N[C@H](Cc3ccc(O)cc3)C(=O)N3CCC[C@@H]3C(=O)N[C@H](CCC(=O)O)C(=O)N[C@H](Cc3c[nH]c4ccccc34)C(=O)N[C@H](CCC(N)=O)C(=O)N[C@H](Cc3c[nH]c4ccccc34)C(=O)N[C@H](CC(C)C)C(=O)N2)C(N)=O)C1=O` (some centres unmarked) is reported as 0.11 ± 0.012 nM (HIV-1; viral entry, luciferase reporter; HOS-CD4-CCR5, JRFL Env pseudovirus).
`CNC(C)C(=O)c1ccc2c(c1)OCO2` (centres unmarked) gave an IC50 of 1030 ± 162 nM (Transporter (Slc6a2, Rattus norvegicus, UniProt Q63380)).
`CN1[C@@H](CCc2ccccc2)CCC[C@H]1CCc1ccccc1` has a Ki of 1570 nM (Sodium-dependent dopamine transporter (Slc6a3, Rattus norvegicus, UniProt P23977); inhibitor).
For `C[N@+]1(CC2CC2)CC[C@]23c4c5ccc(O)c4O[C@H]2C(=O)CC[C@@]3(O)[C@H]1C5`, the EC50 was > 10000 nM (kappa opioid receptor (human); agonist).
`C=CCN(CC=C)CCc1c[nH]c2ccccc12` gave a Ki of 1410 nM (Sodium-dependent dopamine transporter (SLC6A3, Homo sapiens, UniProt Q01959); binding; together with: [3H]WIN35428).
The Ki of `CN1C/C(=C\c2ccc(Cl)cc2Cl)C/C(=C\c2ccc(Cl)cc2Cl)C1` is reported as > 100000 nM (alpha4beta2 nicotinic acetylcholine receptor; binding; together with: [3H]nicotine).

Repeated from above:
The IC50 of `CCCCCCCCCCCCCCCCSC1CC(=O)N(CCC(=O)NCCOCCOCCOCCOCCOCCOCCOCCOCCOCCOCCOCCOCCOCCOCCOCCOCCOCCOCCOCCOCCOCCOCCOCCOCCC(=O)NC(COCCC(=O)NCCOCCOCCOCCOCCC(=O)NCCCC[C@@H](NC(=O)CNC(=O)[C@@H](CC(C)C)NC(=O)[C@@H](CCC(=O)O)NC(=O)[C@H]2CSSC[C@@H](NC(=O)[C@H]3CCCN3C(=O)[C@@H](Cc3c[nH]cn3)NC(C)=O)C(=O)N[C@H](CC(=O)O)C(=O)N[C@H](Cc3ccc(O)cc3)C(=O)N3CCC[C@@H]3C(=O)N[C@H](CCC(=O)O)C(=O)N[C@H](Cc3c[nH]c4ccccc34)C(=O)N[C@H](CCC(N)=O)C(=O)N[C@H](Cc3c[nH]c4ccccc34)C(=O)N[C@H](CC(C)C)C(=O)N2)C(N)=O)(COCCC(=O)NCCOCCOCCOCCOCCC(=O)NCCCC[C@@H](NC(=O)CNC(=O)[C@@H](CC(C)C)NC(=O)[C@@H](CCC(=O)O)NC(=O)[C@H]2CSSC[C@@H](NC(=O)[C@H]3CCCN3C(=O)[C@@H](Cc3c[nH]cn3)NC(C)=O)C(=O)N[C@H](CC(=O)O)C(=O)N[C@H](Cc3ccc(O)cc3)C(=O)N3CCC[C@@H]3C(=O)N[C@H](CCC(=O)O)C(=O)N[C@H](Cc3c[nH]c4ccccc34)C(=O)N[C@H](CCC(N)=O)C(=O)N[C@H](Cc3c[nH]c4ccccc34)C(=O)N[C@H](CC(C)C)C(=O)N2)C(N)=O)COCCC(=O)NCCOCCOCCOCCOCCC(=O)NCCCC[C@@H](NC(=O)CNC(=O)[C@@H](CC(C)C)NC(=O)[C@@H](CCC(=O)O)NC(=O)[C@H]2CSSC[C@@H](NC(=O)[C@H]3CCCN3C(=O)[C@@H](Cc3c[nH]cn3)NC(C)=O)C(=O)N[C@H](CC(=O)O)C(=O)N[C@H](Cc3ccc(O)cc3)C(=O)N3CCC[C@@H]3C(=O)N[C@H](CCC(=O)O)C(=O)N[C@H](Cc3c[nH]c4ccccc34)C(=O)N[C@H](CCC(N)=O)C(=O)N[C@H](Cc3c[nH]c4ccccc34)C(=O)N[C@H](CC(C)C)C(=O)N2)C(N)=O)C1=O` (some centres unmarked) is reported as 0.11 ± 0.012 nM (HIV-1; viral entry, luciferase reporter; HOS-CD4-CCR5, JRFL Env pseudovirus).
